Published values from different studies.
Each line is one published result; not all experiments were run side by side. ± marks the error that the study gave.
Chain of UniProt P08684 (whole entry, looked up): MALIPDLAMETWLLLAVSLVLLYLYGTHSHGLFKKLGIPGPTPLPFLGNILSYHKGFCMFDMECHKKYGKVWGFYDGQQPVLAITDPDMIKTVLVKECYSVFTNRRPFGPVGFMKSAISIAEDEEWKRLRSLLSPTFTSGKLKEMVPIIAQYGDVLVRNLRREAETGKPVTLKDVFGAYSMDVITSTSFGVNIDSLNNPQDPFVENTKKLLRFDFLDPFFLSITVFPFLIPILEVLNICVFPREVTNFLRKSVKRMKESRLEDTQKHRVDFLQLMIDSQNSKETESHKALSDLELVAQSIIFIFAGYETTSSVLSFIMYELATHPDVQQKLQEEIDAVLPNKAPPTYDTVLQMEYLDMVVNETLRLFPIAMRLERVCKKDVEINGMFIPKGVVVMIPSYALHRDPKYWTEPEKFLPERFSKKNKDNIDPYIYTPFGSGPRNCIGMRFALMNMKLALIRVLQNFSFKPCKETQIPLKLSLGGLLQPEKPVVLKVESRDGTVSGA

| Compound | target or system | assay | system | conditions | scale | endpoint | result |
| --- | --- | --- | --- | --- | --- | --- | --- |
| [64Cu+2].c1cnc(CNCc2ccc(CN3CCCN4CCNCCCN(CC4)CC3)cc2)nc1 | CXCR4 | – | NOD/SCID mouse, U87 and U87-stb-CXCR4 xenografts, bladder | iv, 240 min, ex vivo | – | tissue uptake | 2 ± 0.35 %ID/g |
| CC(=O)O[C@H]1CC[C@]2(C)C3=C(CC[C@H]2C1(C)C)[C@@]1(C)CC[C@@H]([C@H](C)CCC=C(C)C)[C@]1(C)CC3 | HCT-15 | cell growth or viability, SRB | – | 50 µM | – | inhibition | 39.4% |
| Nc1ccn([C@@H]2O[C@H](CO)[C@@H](O)[C@H]2F)c(=O)n1 | SNB-78 | sulforhodamine B | – | 11 days, galactose medium | – | CC50 | 26 µM |
| COc1cc(CNC(=O)C[C@H](C)CCC=C(C)C)ccc1O | SF-295 CNS cancer cells | SRB | – | 10 µM, 48 h | – | growth percent | 103% |
| [64Cu+2].c1ccc(CNCc2ccc(CN3CCCN4CCNCCCN(CC4)CC3)cc2)nc1 | CXCR4 | – | NOD/SCID mouse, U87 and U87-stb-CXCR4 xenografts, kidney | iv, 480 min, ex vivo | – | tissue uptake | 24.8 ± 1.12 %ID/g |
| COc1ccc2cc(NC(=O)c3cc(-c4cccnc4)nc4ccccc34)ccc2c1 | Cytochrome P450 3A4 (CYP3A4, Homo sapiens, UniProt P08684) | substrate, LC-MS, refers to: metabolites M1 plus M2 | baculosomes | – | – | Km | 6.4 µM |
| O=c1c(-c2nc3ccccc3s2)cc2c(n1NS(=O)(=O)c1ccccc1)CCCCCC2 | HEp-2 | trypan blue | – | 72 h | – | maximum non-toxic concentration | 140 µg/mL |
| CC/C(=C(\c1ccc(O)cc1)c1ccc(OCCN(C)CCOCCN(C)CCOc2ccc(/C(=C(/CC)c3ccccc3)c3ccc(O)cc3)cc2)cc1)c1ccccc1 | U2OS transfected with ERβ | – | – | 10 µM, cytotoxicity | – | cell density | 79% |
| O=c1ccn([C@@H]2O[C@H](CO)[C@@H](O)[C@H]2F)c(=O)[nH]1 | SNB-78 | cell growth or viability, SRB | – | 11 days | – | CC50 | > 250 µM |
| COC1C=COC2(C)Oc3c(C)c(O)c4c(c3C2=O)C2=NC3(CCN(CC(C)C)CC3)NC2=C(NC(=O)C(C)=CC=CC(C)C(O)C(C)C(O)C(C)C(OC(=O)Nc2cnccn2)C1C)C4=O (stereo not shown) | THP-1 derived macrophages | – | – | – | reference: intracellular over extracellular | intracellular/extracellular ratio | 31 |
| COC(=O)NC(C(=O)NN(Cc1ccc(Br)cc1)CC(O)(Cc1ccccc1)C(=O)Nc1cccc(O)c1C)C(C)(C)C (stereo not shown) | 2/4/A1 | – | – | pH 7.4 | – | Papp | 374 ×10⁻⁶ cm/s |
| Cc1ccc(NC(=O)N2CCCN3CCC(c4ccc(C#Cc5cccnc5)cc4)C3C2)cc1 (stereo not shown) | MDCK-MDR1 | – | Caco-2 | – | – | Papp A→B | 0.02 ×10⁻⁶ cm/s |
| CC(=O)OC[C@H]1O[C@@H](Sc2sc(C(=O)c3ccc(Cl)cc3)c(N)c2-c2nc3ccccc3s2)[C@H](OC(C)=O)[C@@H](OC(C)=O)[C@@H]1OC(C)=O | HEp-2 | cytotoxicity | – | 72 h | – | maximum non-toxic concentration | 80 µg/mL |
| CC(=O)[O-].F[P-](F)(F)(F)(F)F.[Co+2].c1ccc(CN2CCCNCCN(Cc3ccccc3)CCCNCC2)cc1 | THP-1 | cytotoxicity | – | – | – | IC90 | > 15 µM |
| OC[C@H]1O[C@@H](OCCCCCCCCCCC(F)(F)C(F)(F)C(F)(F)C(F)(F)C(F)(F)C(F)(F)F)[C@H](O)[C@@H](O)[C@H]1O | B16-F10 | cytotoxicity, MTT | – | 24 h | – | EC50 | > 250 µM |
| O=c1[nH]cc(C(c2ccc(Cl)cc2)c2c[nH]c(=O)[nH]c2=O)c(=O)[nH]1 | Ba/F3 | – | – | 1 µg/mL | – | cytotoxicity | not toxic |
| COc1cc(CNC(=O)C[C@H](C)CCC=C(C)C)ccc1OCc1cn(-c2ccccc2Cl)nn1 | Malme-3M melanoma cells | SRB | – | 10 µM, 48 h | – | growth percent | 68.2% |
| C=C(c1ccc(C(=O)O)c(F)c1)c1cc2c(cc1C)C(C)(C)C=CC2(C)C | TK6 | cytotoxicity, GreenScreen | – | added: rat liver S9 | – | lowest effective concentration | 33.9 µg/mL |
| C#CCn1c2ccc([N+](=O)[O-])cc2c(=O)n1Cc1ccccc1 | Leishmania amazonensis | – | promastigotes, MHOM/BR/77/LTB0016 | – | reference: CC50 macrophages over IC50 promastigotes | selectivity index | 5 |
| CC#N.[Cl][Mn-2]([Cl])([Cl])[Cl].[Mn+2].c1ccc(CN2CCCN3CCCN(CCCN(Cc4ccccc4)CC3)CC2)cc1 | THP-1 | cell growth or viability | – | – | – | IC50 | 3.49 µM |
| CC(=O)N[C@H](C(=O)N[C@H](C(=O)N[C@@H](CCCNC(=N)N)C(=O)N1Cc2ccccc2C[C@H]1C(=O)N[C@@H](Cc1ccccc1)C(N)=O)C1CCCCC1)C(C)C | human PBMC | Bio-Plex multiplex, refers to: G-CSF | – | 250 µg/mL, 24 h | – | cytokine level | 9.6 ± 12.8 pg/mL |
| Cc1cc(/C=C/C#N)cc(C)c1Oc1nc(NC2CCN(Cc3ccc(S(N)(=O)=O)cc3)CC2)nc2ncccc12 | TZM-bl | cell growth or viability, XTT | – | – | – | CC50 | > 52.7 µM |
| C=CC(=O)Nc1cc(Nc2ncnc(Nc3cc(Cl)c(F)cc3C(C)(C)O)n2)c(OC)cc1N(C)CCN(C)C | human hepatocytes | – | – | – | – | CLint | 7.1 (µL/min)/(10⁶ cells) |
| [99Tc+].[C-]#[N+]CC(C)(C)OC.[C-]#[N+]CC(C)(C)OC.[C-]#[N+]CC(C)(C)OC.[C-]#[N+]CC(C)(C)OC.[C-]#[N+]CC(C)(C)OC.[C-]#[N+]CC(C)(C)OC | rat sandwich-cultured hepatocytes, non-target siRNA | – | – | 10 min, culture day 4 | – | in vitro biliary clearance | 8.08 mL/min/kg |
| Cc1cc(/C=C/C#N)cc(C)c1Oc1nc(NC2CCN(Cc3ccc(S(N)(=O)=O)cc3)CC2)nc2ccccc12 | TZM-bl | cell growth or viability, XTT | – | – | – | CC50 | 21.6 µM |

For quick reference, copied from above:
| Compound | target or system | assay | system | conditions | scale | endpoint | result |
| --- | --- | --- | --- | --- | --- | --- | --- |
| CC/C(=C(\c1ccc(O)cc1)c1ccc(OCCN(C)CCOCCN(C)CCOc2ccc(/C(=C(/CC)c3ccccc3)c3ccc(O)cc3)cc2)cc1)c1ccccc1 | U2OS transfected with ERβ | – | – | 10 µM, cytotoxicity | – | cell density | 79% |
| [99Tc+].[C-]#[N+]CC(C)(C)OC.[C-]#[N+]CC(C)(C)OC.[C-]#[N+]CC(C)(C)OC.[C-]#[N+]CC(C)(C)OC.[C-]#[N+]CC(C)(C)OC.[C-]#[N+]CC(C)(C)OC | rat sandwich-cultured hepatocytes, non-target siRNA | – | – | 10 min, culture day 4 | – | in vitro biliary clearance | 8.08 mL/min/kg |
| C=C(c1ccc(C(=O)O)c(F)c1)c1cc2c(cc1C)C(C)(C)C=CC2(C)C | TK6 | cytotoxicity, GreenScreen | – | added: rat liver S9 | – | lowest effective concentration | 33.9 µg/mL |
